Measurements of several laboratories.
Each line is one published result; not all experiments were run side by side. Several values in a cell are separate wells, animals, samples, runs or records. ± gives the spread as reported.
GRM4: Metabotropic glutamate receptor 4 (GRM4, Homo sapiens, UniProt Q14833)
RPA1 N-terminal domain: Replication protein A 70 kDa DNA-binding subunit, N-terminal domain (RPA1, Homo sapiens, UniProt P27694)
Lysophospholipase-like protein 1: Lysophospholipase-like protein 1 (Mus musculus, UniProt Q3UFF7)
E3 ubiquitin-protein ligase NEDD4: E3 ubiquitin-protein ligase NEDD4 (Homo sapiens, UniProt P46934)

Chains of the proteins cited; added tags and fusions are not shown. Lines headed by an entry give the natural chain unless they say otherwise; changes in a name come on top. Residues count along the entry.
UniProt Q14833, 33-912 limits assumed: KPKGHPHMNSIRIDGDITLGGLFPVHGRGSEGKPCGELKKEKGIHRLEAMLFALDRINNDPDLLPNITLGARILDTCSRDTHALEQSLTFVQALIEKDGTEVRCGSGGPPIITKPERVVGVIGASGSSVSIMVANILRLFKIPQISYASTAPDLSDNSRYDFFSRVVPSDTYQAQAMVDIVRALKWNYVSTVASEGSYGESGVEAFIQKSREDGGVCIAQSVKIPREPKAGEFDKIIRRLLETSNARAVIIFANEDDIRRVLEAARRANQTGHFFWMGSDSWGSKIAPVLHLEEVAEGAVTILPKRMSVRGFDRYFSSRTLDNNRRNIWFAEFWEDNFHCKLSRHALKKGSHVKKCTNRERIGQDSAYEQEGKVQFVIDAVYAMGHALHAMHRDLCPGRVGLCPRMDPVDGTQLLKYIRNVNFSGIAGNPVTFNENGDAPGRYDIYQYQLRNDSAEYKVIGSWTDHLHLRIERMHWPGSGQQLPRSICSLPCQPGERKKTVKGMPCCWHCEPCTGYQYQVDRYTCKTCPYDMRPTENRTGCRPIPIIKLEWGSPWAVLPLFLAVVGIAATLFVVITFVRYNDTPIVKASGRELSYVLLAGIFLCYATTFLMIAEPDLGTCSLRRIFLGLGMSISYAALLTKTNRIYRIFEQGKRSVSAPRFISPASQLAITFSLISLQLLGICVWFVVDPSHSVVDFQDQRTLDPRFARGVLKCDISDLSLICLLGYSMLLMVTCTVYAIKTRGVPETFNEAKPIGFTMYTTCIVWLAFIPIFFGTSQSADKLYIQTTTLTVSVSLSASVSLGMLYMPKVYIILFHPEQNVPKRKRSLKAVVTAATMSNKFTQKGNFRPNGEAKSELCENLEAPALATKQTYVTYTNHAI
UniProt P46934, whole entry, looked up: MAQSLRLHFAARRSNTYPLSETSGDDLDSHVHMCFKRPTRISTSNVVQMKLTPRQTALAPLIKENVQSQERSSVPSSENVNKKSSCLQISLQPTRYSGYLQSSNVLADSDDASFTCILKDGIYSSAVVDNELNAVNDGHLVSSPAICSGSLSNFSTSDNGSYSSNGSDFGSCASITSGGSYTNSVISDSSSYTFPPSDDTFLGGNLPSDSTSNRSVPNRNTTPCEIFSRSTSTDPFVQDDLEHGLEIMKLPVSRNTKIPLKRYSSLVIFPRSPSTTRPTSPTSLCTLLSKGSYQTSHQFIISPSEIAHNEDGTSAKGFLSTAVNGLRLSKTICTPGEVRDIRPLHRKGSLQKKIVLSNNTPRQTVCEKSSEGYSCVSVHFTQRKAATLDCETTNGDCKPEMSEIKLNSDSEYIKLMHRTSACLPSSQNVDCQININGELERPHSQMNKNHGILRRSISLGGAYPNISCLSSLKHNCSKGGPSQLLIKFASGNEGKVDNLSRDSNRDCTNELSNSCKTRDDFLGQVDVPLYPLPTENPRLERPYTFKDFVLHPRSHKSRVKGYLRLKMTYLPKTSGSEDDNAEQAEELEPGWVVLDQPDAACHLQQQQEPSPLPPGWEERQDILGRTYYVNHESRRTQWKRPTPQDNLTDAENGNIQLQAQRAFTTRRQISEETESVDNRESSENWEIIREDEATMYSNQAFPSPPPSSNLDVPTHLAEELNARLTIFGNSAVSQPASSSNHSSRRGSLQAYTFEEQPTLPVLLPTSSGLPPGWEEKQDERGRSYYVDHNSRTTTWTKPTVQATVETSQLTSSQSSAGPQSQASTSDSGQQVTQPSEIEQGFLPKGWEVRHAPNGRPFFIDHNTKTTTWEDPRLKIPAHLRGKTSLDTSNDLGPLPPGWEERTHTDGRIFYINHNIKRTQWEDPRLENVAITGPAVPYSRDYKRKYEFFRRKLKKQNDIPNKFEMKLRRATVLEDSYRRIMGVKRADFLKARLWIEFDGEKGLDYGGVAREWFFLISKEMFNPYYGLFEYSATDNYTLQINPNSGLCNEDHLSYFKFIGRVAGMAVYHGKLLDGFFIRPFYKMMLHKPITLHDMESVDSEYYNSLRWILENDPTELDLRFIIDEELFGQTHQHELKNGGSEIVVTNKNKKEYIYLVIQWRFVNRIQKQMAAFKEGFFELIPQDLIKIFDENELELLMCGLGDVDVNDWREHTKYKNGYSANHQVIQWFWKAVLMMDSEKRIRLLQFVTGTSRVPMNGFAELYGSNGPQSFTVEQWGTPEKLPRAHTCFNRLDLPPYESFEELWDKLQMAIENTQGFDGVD
UniProt P43220, whole entry, looked up: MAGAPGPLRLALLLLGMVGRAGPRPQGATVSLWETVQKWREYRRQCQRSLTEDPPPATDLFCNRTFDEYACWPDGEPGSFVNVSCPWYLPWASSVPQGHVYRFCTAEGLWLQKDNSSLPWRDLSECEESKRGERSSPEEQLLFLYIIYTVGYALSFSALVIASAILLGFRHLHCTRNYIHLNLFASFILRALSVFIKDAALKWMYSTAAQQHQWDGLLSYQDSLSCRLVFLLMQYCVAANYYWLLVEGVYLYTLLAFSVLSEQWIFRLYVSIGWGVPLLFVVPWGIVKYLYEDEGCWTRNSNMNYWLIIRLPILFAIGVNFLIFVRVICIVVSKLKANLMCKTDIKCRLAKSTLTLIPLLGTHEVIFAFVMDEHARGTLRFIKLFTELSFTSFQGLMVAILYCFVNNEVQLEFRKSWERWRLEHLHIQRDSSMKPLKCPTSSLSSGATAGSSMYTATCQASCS
UniProt Q99K82, whole entry: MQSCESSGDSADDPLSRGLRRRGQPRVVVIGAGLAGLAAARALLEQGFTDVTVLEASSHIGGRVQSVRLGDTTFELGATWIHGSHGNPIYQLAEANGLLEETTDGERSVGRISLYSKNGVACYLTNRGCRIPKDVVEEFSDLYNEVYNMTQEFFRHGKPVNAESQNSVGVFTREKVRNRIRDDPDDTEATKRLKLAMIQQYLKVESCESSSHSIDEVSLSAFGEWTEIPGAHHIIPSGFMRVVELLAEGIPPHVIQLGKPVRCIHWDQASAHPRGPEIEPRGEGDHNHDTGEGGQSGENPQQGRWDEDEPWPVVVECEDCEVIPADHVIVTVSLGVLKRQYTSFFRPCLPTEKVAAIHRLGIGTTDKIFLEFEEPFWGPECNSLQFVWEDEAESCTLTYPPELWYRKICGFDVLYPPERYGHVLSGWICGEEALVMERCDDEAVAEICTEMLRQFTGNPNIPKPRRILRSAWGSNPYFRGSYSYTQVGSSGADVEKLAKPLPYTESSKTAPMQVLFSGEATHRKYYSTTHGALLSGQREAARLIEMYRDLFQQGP
UniProt P05067, 672-713 limits assumed: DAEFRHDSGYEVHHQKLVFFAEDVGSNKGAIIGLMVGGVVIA
UniProt P05067, whole entry, looked up: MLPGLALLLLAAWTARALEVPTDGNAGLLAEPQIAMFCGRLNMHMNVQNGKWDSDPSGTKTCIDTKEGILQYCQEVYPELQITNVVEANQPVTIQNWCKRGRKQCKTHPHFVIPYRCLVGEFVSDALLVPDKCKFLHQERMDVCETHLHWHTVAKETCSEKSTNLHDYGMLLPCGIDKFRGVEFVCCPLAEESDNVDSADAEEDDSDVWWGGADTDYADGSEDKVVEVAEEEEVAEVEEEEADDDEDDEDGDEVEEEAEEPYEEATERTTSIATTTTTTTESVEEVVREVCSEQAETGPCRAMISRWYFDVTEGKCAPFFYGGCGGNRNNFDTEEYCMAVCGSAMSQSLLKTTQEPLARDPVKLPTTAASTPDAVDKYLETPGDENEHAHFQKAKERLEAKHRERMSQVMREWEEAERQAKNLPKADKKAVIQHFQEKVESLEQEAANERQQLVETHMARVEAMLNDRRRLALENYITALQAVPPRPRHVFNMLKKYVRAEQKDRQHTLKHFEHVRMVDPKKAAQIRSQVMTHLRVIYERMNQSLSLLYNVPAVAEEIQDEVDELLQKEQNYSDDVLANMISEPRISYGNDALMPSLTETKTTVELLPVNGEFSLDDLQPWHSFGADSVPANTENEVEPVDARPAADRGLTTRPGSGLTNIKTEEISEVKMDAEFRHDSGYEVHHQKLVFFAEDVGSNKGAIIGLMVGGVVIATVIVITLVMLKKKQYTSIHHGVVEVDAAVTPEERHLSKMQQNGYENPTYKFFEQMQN
UniProt Q8IUN9, whole entry, looked up: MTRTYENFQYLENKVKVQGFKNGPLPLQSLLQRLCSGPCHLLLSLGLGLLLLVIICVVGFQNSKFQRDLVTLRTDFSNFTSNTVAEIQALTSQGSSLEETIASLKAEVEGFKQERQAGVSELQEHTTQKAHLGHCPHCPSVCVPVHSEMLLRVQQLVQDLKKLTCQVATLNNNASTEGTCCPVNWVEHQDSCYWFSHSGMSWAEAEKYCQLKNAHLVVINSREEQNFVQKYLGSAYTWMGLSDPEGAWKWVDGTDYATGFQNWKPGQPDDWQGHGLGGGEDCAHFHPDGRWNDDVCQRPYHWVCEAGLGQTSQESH
UniProt O95433, 1-163 limits assumed: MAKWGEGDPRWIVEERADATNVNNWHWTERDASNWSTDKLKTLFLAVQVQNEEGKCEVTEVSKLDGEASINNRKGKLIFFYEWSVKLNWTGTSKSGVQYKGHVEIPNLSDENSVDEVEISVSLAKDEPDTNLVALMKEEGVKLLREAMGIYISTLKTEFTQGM
UniProt P35222, whole entry, looked up: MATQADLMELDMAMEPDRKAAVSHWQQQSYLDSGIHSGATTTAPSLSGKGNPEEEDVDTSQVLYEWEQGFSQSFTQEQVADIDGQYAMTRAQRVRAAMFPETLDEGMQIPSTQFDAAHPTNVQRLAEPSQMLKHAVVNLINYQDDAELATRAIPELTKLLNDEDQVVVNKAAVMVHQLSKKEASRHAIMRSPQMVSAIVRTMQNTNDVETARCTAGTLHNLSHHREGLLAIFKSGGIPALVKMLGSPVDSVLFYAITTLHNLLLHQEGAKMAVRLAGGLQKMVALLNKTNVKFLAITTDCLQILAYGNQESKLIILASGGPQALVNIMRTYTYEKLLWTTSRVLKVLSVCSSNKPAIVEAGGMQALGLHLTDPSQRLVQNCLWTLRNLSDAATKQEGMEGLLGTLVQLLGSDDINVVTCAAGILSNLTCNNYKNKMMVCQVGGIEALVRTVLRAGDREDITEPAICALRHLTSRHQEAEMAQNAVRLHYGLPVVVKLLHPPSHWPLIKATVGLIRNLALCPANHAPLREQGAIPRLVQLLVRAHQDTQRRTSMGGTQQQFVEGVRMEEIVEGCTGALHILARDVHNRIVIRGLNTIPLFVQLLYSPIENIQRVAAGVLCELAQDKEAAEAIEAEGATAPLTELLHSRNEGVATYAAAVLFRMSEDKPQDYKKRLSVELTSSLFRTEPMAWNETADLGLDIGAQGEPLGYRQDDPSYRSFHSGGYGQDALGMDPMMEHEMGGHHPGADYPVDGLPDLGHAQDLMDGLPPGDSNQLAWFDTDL
UniProt F6QIP2, 1-918: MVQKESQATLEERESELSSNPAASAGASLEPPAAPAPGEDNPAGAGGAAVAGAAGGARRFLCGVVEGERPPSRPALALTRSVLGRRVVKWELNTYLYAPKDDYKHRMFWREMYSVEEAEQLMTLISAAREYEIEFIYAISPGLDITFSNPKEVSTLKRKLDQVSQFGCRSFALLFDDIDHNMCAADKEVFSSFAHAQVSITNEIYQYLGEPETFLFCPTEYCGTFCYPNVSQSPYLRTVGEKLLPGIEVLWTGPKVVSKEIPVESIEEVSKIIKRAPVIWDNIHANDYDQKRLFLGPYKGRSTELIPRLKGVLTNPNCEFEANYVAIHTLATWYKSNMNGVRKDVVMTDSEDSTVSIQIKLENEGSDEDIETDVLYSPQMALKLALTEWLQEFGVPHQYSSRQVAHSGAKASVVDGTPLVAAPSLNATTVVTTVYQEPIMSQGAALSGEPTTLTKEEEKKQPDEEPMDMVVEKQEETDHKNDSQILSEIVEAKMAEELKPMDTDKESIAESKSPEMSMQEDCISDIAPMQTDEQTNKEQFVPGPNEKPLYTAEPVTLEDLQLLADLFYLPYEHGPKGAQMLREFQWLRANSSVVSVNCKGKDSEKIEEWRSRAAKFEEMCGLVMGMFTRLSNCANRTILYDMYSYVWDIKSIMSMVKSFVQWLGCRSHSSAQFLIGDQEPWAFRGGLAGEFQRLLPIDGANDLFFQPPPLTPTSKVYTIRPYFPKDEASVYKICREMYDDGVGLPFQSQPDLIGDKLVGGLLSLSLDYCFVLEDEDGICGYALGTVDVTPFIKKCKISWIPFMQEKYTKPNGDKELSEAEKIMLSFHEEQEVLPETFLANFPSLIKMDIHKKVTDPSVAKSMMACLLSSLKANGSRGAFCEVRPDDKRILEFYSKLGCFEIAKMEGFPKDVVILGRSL
UniProt P50552, whole entry, looked up: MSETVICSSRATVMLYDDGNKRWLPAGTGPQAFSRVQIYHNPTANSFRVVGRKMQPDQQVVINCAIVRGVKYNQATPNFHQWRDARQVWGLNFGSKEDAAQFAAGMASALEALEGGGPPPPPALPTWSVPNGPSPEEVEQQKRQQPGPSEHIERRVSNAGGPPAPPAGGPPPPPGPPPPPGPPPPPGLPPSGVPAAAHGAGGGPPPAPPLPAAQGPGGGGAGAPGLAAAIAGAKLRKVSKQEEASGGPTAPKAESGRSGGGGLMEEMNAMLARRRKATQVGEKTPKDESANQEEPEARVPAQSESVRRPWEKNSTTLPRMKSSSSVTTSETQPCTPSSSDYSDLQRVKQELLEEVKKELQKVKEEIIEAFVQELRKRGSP

CC(=O)NCCCC[C@H](NC(=O)CNC(=O)[C@H](CCCNC(=N)N)NC(C)=O)C(=O)Nc1ccc2c(C)cc(=O)oc2c1  kcat (HDAC6 (Homo sapiens, UniProt Q9UBN7); deacetylation, substrate; 25 °C, added: 10 to 50 nM enzyme): 0.4 ± 0.02 s⁻¹
COc1ccc(NC(=O)CN2CCCN(S(=O)(=O)Cc3ccc(Cl)cc3Cl)CC2)c(OC)c1  maximal response (GRM4; calcium mobilization, positive allosteric modulator; CHO cells with Gqi5; added: glutamate; relative to: PHCCC maximal response): 34.4%
Cc1ccc(C(=O)Nc2ccccc2C(=O)O)cc1S(=O)(=O)Nc1ccc(Cl)c(Cl)c1  ligand efficiency (RPA1 N-terminal domain; binding, fluorescence polarisation competition; added: FITC-ATRIP probe): 0.23
CC(=O)N[C@@H](CC(C)C)C(=O)N[C@H](C(=O)N[C@@H](CO)C(=O)N[C@@H](CCCNC(=N)N)C(=O)Nc1ccc2c(CC(N)=O)cc(=O)oc2c1)C(C)C  kcat/Km (MALT1 (Homo sapiens, UniProt Q9UDY8); substrate, fluorogenic peptide hydrolysis; pH 7.5, enzyme 399 nM, citrate 0.9 M): 4600 M⁻¹ s⁻¹
CN(Cc1ccccc1)Cc1cn(CC(C)(C)c2c[nH]c3ccccc23)nn1  Emax (GLP1R (Homo sapiens, UniProt P43220); cAMP accumulation, positive allosteric modulator, HTRF; 0.6 µM, crude reaction product, added: GLP-1(9-36) at EC20; relative to: BETP): 99.5%
NCCCNCCCCNCCCNCc1ccc2ccccc2c1  relative Vmax (Smox (Mus musculus, UniProt Q99K82); substrate; relative to: spermine): 0.4
Cc1ccc(NC(=O)c2ccc(C)c(S(=O)(=O)Nc3cccc(Cl)c3)c2)c(C(=O)O)c1  ligand efficiency (RPA1 N-terminal domain; binding, fluorescence polarisation competition; added: FITC-ATRIP probe): 0.2
C#CCOc1ccc(C[C@H](N)C(=O)N[C@@H](CC(=O)O)C(=O)N[C@@H](CO)C(=O)N[C@@H](CCC(=O)O)C(=O)N[C@H](C(=O)NCC(=O)N[C@@H](CCC(=O)O)C(=O)N[C@@H](CS)C(=O)O)[C@@H](C)O)cc1  fold decrease in binding affinity (Kelch-like ECH-associated protein 1, Kelch domain (KEAP1, Homo sapiens, UniProt Q14145); Kelch domain binding, plate-immobilized binding; concentration not given; relative to: KD over cyclic parent macrocycle): 5 fold
COc1ccc(NC(=O)CN2CCCN(S(=O)(=O)c3ccc(C(C)(C)C)cc3)CC2)c(OC)c1  maximal response (GRM4; calcium mobilization, positive allosteric modulator; CHO cells with Gqi5; added: glutamate; relative to: PHCCC maximal response): 32.6 ± 3.1%
O=C(Nc1ccccc1)C12CC1/C(=N\O)c1cc(F)ccc1O2 (centres unmarked)  response (Grm1 (Rattus norvegicus, UniProt P23385); antagonist, calcium mobilization; BHK; concentration not given, added: glutamate EC80; relative to: maximal glutamate): 49%
O=C(/C=C/c1ccc(O)c(OC(F)(F)F)c1)C(CCCOC1CCCCO1)C(=O)/C=C/c1ccc(O)c(OC(F)(F)F)c1 (centres unmarked)  Aβ band density (APP (Homo sapiens, UniProt P05067); SDS-PAGE western blot, item: Aβ1-42 species 75-200 kDa; 30 µM, 24 h, 37 °C, added: Aβ 10 µM; relative to: DMSO control): 2440 ± 376%
Cc1cc(NC(=O)c2cccc(NC(=O)C3=CC(C)(C)CC3=O)c2)ccc1Nc1nccc(-c2cccnc2)n1  remaining activity (MAPK8 (Homo sapiens, UniProt P45983); kinase activity, inhibitor; 0.02032 µM, unit not given, added: 10 mM GSH; relative to: DMSO): 0.892
CC(=O)N[C@H]1[C@@H](O[C@H](C)[C@H](N)C(=O)O)O[C@H](CO)[C@H](O)[C@@H]1O  ΔG (CLEC10A, carbohydrate recognition domain (Homo sapiens, UniProt Q8IUN9); binding, ITC; 293 K): -7.42 ± 0.04 kcal/mol
COc1ccc2c(c1)S(=O)(=O)N(CCCCCc1ccccc1)C(=O)O2  protein mass increase (Palmitoyl-protein thioesterase ABHD10, mitochondrial (Homo sapiens, UniProt Q9NUJ1); covalent adduct, ESI-MS; 30 min, 25 °C, added: five-fold inhibitor excess): 376 Da
COC(=O)[C@@H]1C(c2nc3cc(Cl)ccc3o2)=Cc2cc3c(cc2[C@H]1c1cc(OC)c(OC)c(OC)c1)OCO3  EC50 (Leishmania infantum; iRFP fluorescence; mouse splenocytes infected, amastigote, iRFP, ex vivo splenic explant; 48 h): 12.1 ± 0.4 µM
CC(C)[C@H](NC(=O)c1ccccc1N)C(=O)N[C@@H](C)C(=O)N[C@@H](C)C(=O)N[C@@H](CCC(N)=O)C(=O)N[C@H](C(=O)N[C@@H](CCCCN)C(=O)N[C@H](C(=O)N[C@@H](CCCCNc1ccc([N+](=O)[O-])cc1[N+](=O)[O-])C(N)=O)[C@@H](C)O)[C@@H](C)O  kcat (Mitochondrial intermediate peptidase (MIPEP, Homo sapiens, UniProt Q99797); substrate, FRET peptide hydrolysis): 0.05 s⁻¹
Nc1ncnc2c1c(-c1ccc(C(=O)Nc3cc(C(F)(F)F)ccn3)cc1)nn2[C@@H]1CCCN(C(=O)C2CC2)C1  residence time (Tyrosine-protein kinase BTK, non-phosphorylated (BTK, Homo sapiens, UniProt Q06187); TR-FRET binding kinetics; 37 °C, unphosphorylated enzyme): ~20 min and 21.9 min
Nc1nc(NCc2ccc(Cl)cc2)nn1S(=O)(=O)c1cccc2ccccc12  probe labelling (Lysophospholipase-like protein 1; activator, gel-based ABPP FP-rhodamine; relative to: DMSO): 1.2 fold
COC(=O)[C@@H]1C(C=Nc2cncnc2N)=Cc2cc3c(cc2[C@H]1c1cc(OC)c(OC)c(OC)c1)OCO3  EC50 (Leishmania infantum; iRFP fluorescence; mouse splenocytes infected, amastigote, iRFP, ex vivo splenic explant; 48 h): 67.4 ± 2 µM
CCOC(=O)/C=C/CNCCN1c2ccccc2CCc2ccc(Cl)cc21  ubiquitination TR-FRET signal AUC (E3 ubiquitin-protein ligase NEDD4; inhibitor, Ub-TR-FRET; 100 µM, 1 h preincubation, HECT domain, added: ATP 2 mM; higher = more ubiquitination): 136000 a.u. and 137000 a.u.
O=C(NNC(=S)Nc1cccc(C(F)(F)F)c1)c1cccn1-c1ccc(F)cc1  fluorescence change (Activator of 90 kDa heat shock protein ATPase homolog 1, N-terminal domain (AHSA1, Homo sapiens, UniProt O95433); binding; acetylated Aha1 N-terminal domain; concentration not given): no effect
COC(=O)[C@@]1(C)C=C(C(=O)Nc2cccc(C(=O)NC34CC(Nc5nccc(-c6cccnc6)n5)(C3)C4)c2)C(=O)CC1  remaining activity (MAPK10 (Homo sapiens, UniProt P53779); enzyme activity, inhibitor; 0.006774 µM): 0.875 fraction of control
O=C1CCC(N2Cc3cc(-c4nc5ccccn5c4NC45CC6CC(CC(C6)C4)C5)ccc3C2=O)C(=O)N1 (centres unmarked)  Dmax (WEE1/CRBN (Homo sapiens, UniProt P30291+Q96SW2); degrader, HiBiT; Jurkat; 5 h): > 98%
Cc1cccc(-c2noc(-c3cn(CC(=O)NCc4ccc5c(c4)OCO5)c4nc(C)ccc4c3=O)n2)c1  entropy change (Catenin beta-1, residues 141-305 (CTNNB1, Homo sapiens, UniProt P35222); isothermal titration calorimetry; concentration not given, 25 °C): 18.9 cal/(mol·K)
Cc1ccc(S(=O)(=O)Oc2ccc(/C=C/c3c[nH]c4ccc(C#N)cc34)cc2)cc1  inhibition (Amyloid-beta precursor protein, Aβ1-40 (APP, Homo sapiens, UniProt P05067); Aβ40 aggregation, thioflavin T fluorescence; 25 µM): 23%
COc1cccc(Nc2ncnc3onc(-c4ccc(Cl)cc4)c23)c1  iodide influx rate (CFTR (Homo sapiens, UniProt P13569, del508-508); FRT expressing ΔF508-CFTR; relative to: DMSO): 100 µM/s
Nc1nc(SCc2ccc(Cl)c(Cl)c2)nn1S(=O)(=O)c1ccc2c(c1)CCO2  probe labelling (Lysophospholipase-like protein 1; activator, gel-based ABPP FP-rhodamine; relative to: DMSO): 2.2 fold
CCOC(=O)/C=C/CNCCCCN1c2ccccc2CCc2ccc(Cl)cc21  ubiquitination TR-FRET signal AUC (E3 ubiquitin-protein ligase NEDD4; inhibitor, Ub-TR-FRET; 33.33 µM, 1 h preincubation, HECT domain, DMSO up to 2%, added: ATP 2 mM; higher = more ubiquitination): 48900 a.u.
C/C=C/Cn1c(Cc2cc(OC)c(OC)c(OC)c2)nc2c(N)ncnc21  ΔH (Heat shock protein HSP 90-beta, N-terminal domain (HSP90AB1, Homo sapiens, UniProt P08238); isothermal titration calorimetry; 298 K): -9.75 ± 0.07 kcal/mol
CCN(CC)c1ccc2c(-c3ccccc3C(=O)N(C)CCCC(=O)N[C@@H](CC(C)C)C(=O)N[C@@H](CCCNC(=N)N)C(=O)N[C@@H](CCCNC(=N)N)C(=O)N[C@@H](C)C(=O)N[C@@H](CO)C(=O)N[C@@H](CC(C)C)C(=O)NCC(=O)O)c3ccc(=[N+](CC)CC)cc-3oc2c1  phosphorylation (PRKACA (Homo sapiens, UniProt P17612); substrate, HPLC-Vis; 10 µM, 1 h, pH 7.4, 10 mM MgCl2, added: ATP 25 µM, PKACα 0.5 nM): 33.6%
O=C(Nc1ccc(F)c(F)c1)C12CC1/C(=N\O)c1ccccc1O2 (centres unmarked)  response (GRM4; positive allosteric modulator, calcium mobilization; CHO expressing Gqi5; concentration not given, added: glutamate EC20; relative to: (±)-PHCCC): 48.6 ± 12%
CCOC(=O)/C=C/CNCCCN1c2ccccc2CCc2ccc(Br)cc21  ubiquitination TR-FRET signal AUC (E3 ubiquitin-protein ligase NEDD4; inhibitor, Ub-TR-FRET; 1.235 µM, 1 h preincubation, HECT domain, added: ATP 2 mM; higher = more ubiquitination): 119000 a.u.
NCC(c1ccccc1)c1cccc(Oc2ccccc2)c1 (centres unmarked)  efficacy increase (Taar1 (Mus musculus, UniProt Q923Y8, T268M/Y287N); cAMP production, agonist; double mutant; relative to: wild type): 39 to 95%
O=C(O)c1ccccc1Nc1c(C(=O)O)ccnc1C(=O)O  remaining activity (KDM4E (Homo sapiens, UniProt B2RXH2); inhibitor, FDH-coupled spectrophotometry, item: formaldehyde; 200 µM): 39%
CCOC(=O)/C=C/CNCCCCCN1c2ccccc2CCc2ccc(Cl)cc21  ubiquitination TR-FRET signal AUC (E3 ubiquitin-protein ligase NEDD4; inhibitor, Ub-TR-FRET; 0.01524 µM, 1 h preincubation, HECT domain, added: ATP 2 mM; higher = more ubiquitination): 71500 a.u. and 98700 a.u. and 70400 a.u. and 70100 a.u. and 98500 a.u. and 101000 a.u.
CC(=O)Nc1ncc(CN2CC[C@H](Oc3cccc(F)n3)C[C@@H]2C)s1 [isotope labelled]  specific binding (Protein O-GlcNAcase (Macaca mulatta, UniProt F6QIP2); autoradiography; rhesus monkey hypothalamus sections; 5 nM, radiolabelled compound): 11.4 nCi/mg
N#Cc1cnc(Nc2nc3ccccc3o2)nc1-c1ccccn1  maximal response (Grm5 (Rattus norvegicus, UniProt P31424); calcium mobilization, negative allosteric modulator; added: glutamate EC80; relative to: glutamate maximum): 22 ± 2%
CC(=O)N[C@@H](Cc1ccccc1Cl)C(=O)N1CCC[C@]12C=C[C@@H]1CC[C@@H](C(=O)N3CCC[C@@H]4C=C[C@H]5CC[C@@H](C(=O)O)N5C(=O)[C@H]43)N1C2=O  binding free energy (Vasodilator-stimulated phosphoprotein, EVH1 domain (VASP, Homo sapiens, UniProt P50552); fluorescence titration; 25 °C): -7.91 kcal/mol

Some of these lines once more:
CC(=O)Nc1ncc(CN2CC[C@H](Oc3cccc(F)n3)C[C@@H]2C)s1 [isotope labelled]  specific binding (Protein O-GlcNAcase (Macaca mulatta, UniProt F6QIP2); autoradiography; rhesus monkey hypothalamus sections; 5 nM, radiolabelled compound): 11.4 nCi/mg
N#Cc1cnc(Nc2nc3ccccc3o2)nc1-c1ccccn1  maximal response (Grm5 (Rattus norvegicus, UniProt P31424); calcium mobilization, negative allosteric modulator; added: glutamate EC80; relative to: glutamate maximum): 22 ± 2%
C/C=C/Cn1c(Cc2cc(OC)c(OC)c(OC)c2)nc2c(N)ncnc21  ΔH (Heat shock protein HSP 90-beta, N-terminal domain (HSP90AB1, Homo sapiens, UniProt P08238); isothermal titration calorimetry; 298 K): -9.75 ± 0.07 kcal/mol
